# Published values pooled from the literature.
# Every numbered part comes from another study and shows a few of its results, in no order. Positions count from the first letter of the parent shown.

# Series 1 — method: protein binding microarray; form: double-stranded DNA, one strand shown; medium: in vitro; concentration: not given; relative to: not given; reading: higher = stronger binding
# Target: Histone acetyltransferase KAT6A, winged helix 1, GST fusion (KAT6A, Homo sapiens, UniProt Q92794, residues 1-85)
# Notes: 8-mer, flanks averaged, mean of 2 arrays, mostly near background
# Residues (chain): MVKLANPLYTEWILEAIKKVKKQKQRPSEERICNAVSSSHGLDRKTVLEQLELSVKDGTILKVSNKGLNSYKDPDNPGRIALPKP
Oligonucleotide,E-score
CCTTCCCC,-0.0102
AGCTGCAT,-0.0748
GACAACGC,0.198
CACATACA,-0.196
CGTCGGCC,0.398
GATAAACA,-0.0651
CAAGAAGG,-0.0713
ACCTCCTG,-0.226
CCCCTACA,-0.154
CATGCCCA,-0.204
AATGCTTA,-0.0884
GCGAGGAA,0.0573
AGATGGTG,-0.241
TCCGGCGA,0.224
CTGCTAGC,-0.061
TACAACGA,-0.164
CCGTGAGA,0.213
CGCACGTC,0.265
GGTTTACA,-0.0586
CTACGTAA,0.163

# Series 2 — method: DHFR PCA, deep sequencing; medium: yeast; added: (+)-ABA 0 µM; relative to: wild-type fitted maximum; reading: higher = stronger binding
# Target: ABI1, truncated, D143A, DHFR fusion (Arabidopsis thaliana)
# Notes: methotrexate growth selection, single substitutions
# Starting sequence: PYL1, truncated, DHFR fusion (Arabidopsis thaliana); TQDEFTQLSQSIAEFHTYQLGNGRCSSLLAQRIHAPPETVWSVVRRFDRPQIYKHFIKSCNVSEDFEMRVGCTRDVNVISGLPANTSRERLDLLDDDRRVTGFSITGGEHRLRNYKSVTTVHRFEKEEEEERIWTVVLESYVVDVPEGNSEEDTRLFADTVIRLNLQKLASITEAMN
Substitution,relative binding score
K126A,51.3%
S11T,32.1%
I172S,-2.76%
R69I,18.5%
N177L,13.3%
R90P,-14%
V76G,0.909%
V76W,-2.88%
S80N,38.7%
D153M,-1.38%

# Series 3 — method: RNA Bind-n-Seq; form: RNA; medium: in vitro; concentration: 200 nM; notes: whole 134-nt RNA, ends assumed; added: 150 mM LiCl; relative to: input library; reading: higher = stronger binding; each molecule: 7-deaza-guanosine replaces G
# Target: Fragile X messenger ribonucleoprotein 1, C-terminal low-complexity region (Fmr1, Mus musculus, UniProt P35922)
# Constant ends, left off below: GGGAGUUCUACAGUCCGACGAUC … UGGAAUUCUCGGGUGUCAAGG
Oligonucleotide,log2 enrichment
AAGUCCUGUGCUACACAUCGUAUGUACCGAAUCGGGCCCCGGGCCCCGGGCCCCGGAAAGUAUUAUGUUACGCCGUUCGGAUCUGCACUU,-1.63
GCAGGAAGUAAAAACAAAUGGAAAUGCUUCGGAUAGUGGCAGGGGUGGGGGUUGCUAAGGAAAGGGUAGGAUGGGAGUGGGUAAAGAGUU,1.45
AGUCCUGUGCUACACAUCGUAUGUACCGAAUCGGGCCCCGGCCCCGGGGCCCCGGGGAAAGUAUUAUGUUACGCCGUUCGGAUCUGCACU,-3.62
ACCAUGCAGGUGGGCAUCUUUGGGAAGUGGGGCAAGGGGGGGAUAGGGAGGGGGGUAACACUAAAGGAACAGGUGGUCCCAGGUCGUUUC,1.46
CACAGACAACACGCACCCACACAGACACAGAGGGAAGGGGUUGGGAUGGGGACAGGGUGCACAGCAAGGCGGGGUAGGACCCCAGCCCCU,0.347
GCAGGAAGUAAAAACAAAUGGAAAUGCUUCGGAUAGUGGCAGGGGUGGGGGUUGCUAAGGAAAGGGUGGGAUGGGAAAAGGUAAAGAGUU,1.43
UGGGAGGUGGAUUUUGUUUAUUUUUUUAGCUCAUUUCCAGGGGUGGGAAUUUUUUUUUAAUAUGUGUCAUGAAUAAAGUCGUUUUUGAAA,0.156
UCAAGUCCUGUGCUACACAUCGUAUGUACCGAAUCGGAAAAAAAGGUGGUUUGGAAAGUAUUAUGUUACGCCGUUCGGAUCUGCACUUCC,-1.73

# Series 4 — method: RNA Bind-n-Seq; form: RNA; medium: in vitro; concentration: 365 nM; relative to: no-protein control; reading: higher = stronger binding
# Target: RNA binding protein fox-1 homolog 2, RRM domain, GST-SBP tag (RBFOX2, Homo sapiens, UniProt O43251-10, residues 100-194)
# Notes: natural RNA segment, single round, ends assumed
# Constant ends, left off below: GGGAGUUCUACAGUCCGACGAUC … UGGAAUUCUCGGGUGCCAA
Oligonucleotide,RBNS enrichment (R)
GAGAUGGUAAUAUGACUCUCCAUAUUUUGGUACCAAUUCUGAGACUGUAUGAAUUUUCAGGUGGAACUUUAGCACACACUGAAGCAAAGUUGUGAAGUGCAGGGCGGGAG,0.483
UAACAGGAACUCGGAAGGUAGAACUUAGAAUUCAGAACUUGGGUUUCAAUUGUAGAAUUUGGAAUCUGGAAUACAGAAUUGGGAAGAAGAACAGAGAUGACAAAAGACCA,0.653
UGGGGGGUGGGGCUUGUUCCCCUGCAGUAUCUGUUCUGUGAAGUUUGUUAAAUGUAAGGAAAGCUUAAAUUCUUGUAUCUUUAAAAGAGAAAAUCUUAUUUAACCCUUUU,1.35
AGGACAUAAAUUCAGAGUGGCUGGCCCUGAAUAAUGCCAGGCUGGGCAGCGAGAGGACAGGCUAUGGCUUGCUCCUGGACCUAUACUCCCUUAGCCCCAGUCCCACAGAU,0.507
UAAUCACCACUUCUCGAUGUCUAUUUCAAAUCAAGGCUCCUGAGUAGGGGGUGAAGUGAGCCAGCUUGCACCUCAGGCUAACACAUAGGACUUUGCUCAGCCAUGUCCCC,0.417
GCUAUGUAACGCGAUCCCAUUUGCCUCUUGCUCCAUUGUGUGAUAAGCUAUGGGCUUGAAGAUGUUCUUAUAUUUCAGUGACAAUGGACACCUUAGCUUCUUAUGAGGAA,0.793
CACUAAAUCAUAGUUUAACACAGGAAUCAAAAUGGAAGCCACGGGGAGCAUAGCAUGUGGGUUUCUUUGUAGGAGGGCACUUAGGUCCCUUGCACACAGCCAUUCCCUAG,5.22
UCAUAUACUGCCAUGUACUAGUUUUAGUUUUCUCUUAGAACAUUGUAUUACAGAUGCCUUUUUUGUAGUUUUUUUUUUUUUUAUGUGAUCAAUUUUGACUUAAUGUGAUU,1.85

# Other studies, line by line
Substance,target,assay,test system,setting,how to read,endpoint,result
"PhoQ, residues 284 288 289 292 302 303 SASVAL","PhoP, residues 12 14 15 18 19 TTLRV (Escherichia coli, UniProt P23836)","Sort-seq, item: YFP reporter",E. coli,"PhoQ-PhoP variant library, added: 10 µM Mg2+","relative to: high Mg2+ state, higher = stronger signaling",fold induction,0.445

# Excerpt of the above (series 4):
Oligonucleotide,RBNS enrichment (R)
GAGAUGGUAAUAUGACUCUCCAUAUUUUGGUACCAAUUCUGAGACUGUAUGAAUUUUCAGGUGGAACUUUAGCACACACUGAAGCAAAGUUGUGAAGUGCAGGGCGGGAG,0.483
UAACAGGAACUCGGAAGGUAGAACUUAGAAUUCAGAACUUGGGUUUCAAUUGUAGAAUUUGGAAUCUGGAAUACAGAAUUGGGAAGAAGAACAGAGAUGACAAAAGACCA,0.653
UGGGGGGUGGGGCUUGUUCCCCUGCAGUAUCUGUUCUGUGAAGUUUGUUAAAUGUAAGGAAAGCUUAAAUUCUUGUAUCUUUAAAAGAGAAAAUCUUAUUUAACCCUUUU,1.35
AGGACAUAAAUUCAGAGUGGCUGGCCCUGAAUAAUGCCAGGCUGGGCAGCGAGAGGACAGGCUAUGGCUUGCUCCUGGACCUAUACUCCCUUAGCCCCAGUCCCACAGAU,0.507
UAAUCACCACUUCUCGAUGUCUAUUUCAAAUCAAGGCUCCUGAGUAGGGGGUGAAGUGAGCCAGCUUGCACCUCAGGCUAACACAUAGGACUUUGCUCAGCCAUGUCCCC,0.417
